# Results pooled from the literature.
# A part holds a random share of what one study measured. Several values in a cell are separate wells, animals, samples, runs or records.

# Sample 1 — technique: CellTiter-Glo; tested at: 2 µM; baseline: DMSO
# Compound: CS(=O)(=O)c1cc(C2(NC(=O)c3cncc4c3cnn4-c3ccc(F)cc3)CC2)ccn1
cell line,test system,setting,viability
normal organoid sample G,"human, normal-adjacent epithelium",,97.8%
normal organoid sample D,"human, normal-adjacent epithelium",,117% and 115%
normal organoid sample F,"human, normal-adjacent epithelium",,85.4% and 84.5%
normal organoid sample H,"human, normal-adjacent epithelium",,101% and 97.8%
normal-adjacent organoid sample E,,replicate mean,80.9%
normal adjacent epithelium patient-derived organoids,,mean of five organoid lines,97%
normal organoid sample E,"human, normal-adjacent epithelium",,87.3% and 74.4%
normal-adjacent organoid sample F,,replicate mean,84.9%
sample D normal colon organoid,,mean of replicates,116%

# Sample 2 — effect on: enzyme activity; action: inhibitor; tested at: 0.5 µM; baseline: control
# Target: Serine/threonine-protein kinase Nek9 (NEK9, Homo sapiens, UniProt Q8TD19)
# Residues (Q8TD19 1-979): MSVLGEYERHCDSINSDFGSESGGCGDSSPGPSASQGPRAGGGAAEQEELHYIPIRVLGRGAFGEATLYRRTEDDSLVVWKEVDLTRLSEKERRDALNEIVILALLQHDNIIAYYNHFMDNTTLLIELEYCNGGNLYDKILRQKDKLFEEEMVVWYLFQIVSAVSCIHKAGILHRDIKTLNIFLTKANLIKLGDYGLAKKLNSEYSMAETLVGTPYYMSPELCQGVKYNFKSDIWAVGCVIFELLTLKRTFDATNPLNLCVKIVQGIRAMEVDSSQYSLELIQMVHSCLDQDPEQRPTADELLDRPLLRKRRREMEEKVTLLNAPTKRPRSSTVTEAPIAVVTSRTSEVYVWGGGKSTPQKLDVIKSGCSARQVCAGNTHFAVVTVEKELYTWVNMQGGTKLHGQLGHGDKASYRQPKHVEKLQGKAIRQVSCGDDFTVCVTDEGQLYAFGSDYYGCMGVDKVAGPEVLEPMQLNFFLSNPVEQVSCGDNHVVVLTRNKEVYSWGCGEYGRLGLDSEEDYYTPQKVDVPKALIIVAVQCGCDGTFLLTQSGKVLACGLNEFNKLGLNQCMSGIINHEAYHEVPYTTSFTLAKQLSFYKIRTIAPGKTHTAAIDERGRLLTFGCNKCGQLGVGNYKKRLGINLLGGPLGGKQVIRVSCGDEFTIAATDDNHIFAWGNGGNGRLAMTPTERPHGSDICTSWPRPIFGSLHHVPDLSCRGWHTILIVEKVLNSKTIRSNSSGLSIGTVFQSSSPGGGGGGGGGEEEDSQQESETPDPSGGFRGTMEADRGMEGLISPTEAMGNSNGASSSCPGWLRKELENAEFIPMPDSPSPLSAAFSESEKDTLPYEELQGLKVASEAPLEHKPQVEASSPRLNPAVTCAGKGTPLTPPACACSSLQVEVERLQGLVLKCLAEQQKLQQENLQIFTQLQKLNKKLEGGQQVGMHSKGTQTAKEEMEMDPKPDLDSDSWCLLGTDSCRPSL
Compound,remaining activity [%]
COc1ccc(Cl)cc1NC(=O)Nc1cc(C)nc2ccccc12,104
CC(=O)O/N=C1/C(c2c(O)[nH]c3cc(Br)ccc23)=Nc2ccccc21,86.7
CC(C)[C@H](CO)Nc1nc(Nc2cccc(Cl)c2)c2ncn(C(C)C)c2n1,93.1
O=c1cc(N2CCOCC2)oc2c1ccc1ccccc12,102
CCC(=O)Nc1ccc2ncnc(Nc3cccc(Br)c3)c2c1,105
Cc1nc(Nc2ncc(C(=O)Nc3c(C)cccc3Cl)s2)cc(N2CCN(CCO)CC2)n1,98.3
Cn1cnc2cc3c(Nc4cccc(Br)c4)ncnc3cc21,90
O=C(Nc1ccc(Cl)cc1)c1ccccc1NCc1ccncc1,91.2
CC(C)c1nn(-c2c(Cl)cccc2Cl)c2nc(Cc3ccc(OCCO)cc3)[nH]c(=O)c12,97.3
C[S+]([O-])c1ccc(-c2nc(-c3ccncc3)c(-c3ccc(F)cc3)[nH]2)cc1 (stereo not drawn),99.1
Nc1[nH]nc2nnc(-c3c(-c4ccccc4)nn4ccccc34)cc12,93.3
CCN1/C(=C/C(C)=O)Sc2ccc(OC)cc21,102
CN(C)CCCn1cc(C2=C(c3c[nH]c4ccccc34)C(=O)NC2=O)c2ccccc21,100
CCOc1cc2ncnc(Nc3cccc(Br)c3)c2cc1OCC,96.7
COc1cc2ncc(-c3ccccc3)nc2cc1OC,93.5
COc1ccc(-c2cnc3c(-c4ccsc4)cnn3c2)cc1,90.3
COc1cc2ncnc(Nc3ccc(OCc4ccccc4)cc3)c2cc1OC,104
Cc1ccc(NC(=O)c2ccc(CN3CCN(C)CC3)cc2)cc1Nc1nccc(-c2cccnc2)n1,99.6
Cn1cc(/C=C2\C(=O)Nc3ccc(S(N)(=O)=O)cc32)c2ccccc21,67.3

# Sample 3 — effect on: ATPase activity; tested at: concentration not given; notes: average; added: with ssDNA
# Target: DNA polymerase theta, helicase domain (POLQ, Homo sapiens, UniProt O75417)
# Chain of UniProt O75417 (whole entry, looked up): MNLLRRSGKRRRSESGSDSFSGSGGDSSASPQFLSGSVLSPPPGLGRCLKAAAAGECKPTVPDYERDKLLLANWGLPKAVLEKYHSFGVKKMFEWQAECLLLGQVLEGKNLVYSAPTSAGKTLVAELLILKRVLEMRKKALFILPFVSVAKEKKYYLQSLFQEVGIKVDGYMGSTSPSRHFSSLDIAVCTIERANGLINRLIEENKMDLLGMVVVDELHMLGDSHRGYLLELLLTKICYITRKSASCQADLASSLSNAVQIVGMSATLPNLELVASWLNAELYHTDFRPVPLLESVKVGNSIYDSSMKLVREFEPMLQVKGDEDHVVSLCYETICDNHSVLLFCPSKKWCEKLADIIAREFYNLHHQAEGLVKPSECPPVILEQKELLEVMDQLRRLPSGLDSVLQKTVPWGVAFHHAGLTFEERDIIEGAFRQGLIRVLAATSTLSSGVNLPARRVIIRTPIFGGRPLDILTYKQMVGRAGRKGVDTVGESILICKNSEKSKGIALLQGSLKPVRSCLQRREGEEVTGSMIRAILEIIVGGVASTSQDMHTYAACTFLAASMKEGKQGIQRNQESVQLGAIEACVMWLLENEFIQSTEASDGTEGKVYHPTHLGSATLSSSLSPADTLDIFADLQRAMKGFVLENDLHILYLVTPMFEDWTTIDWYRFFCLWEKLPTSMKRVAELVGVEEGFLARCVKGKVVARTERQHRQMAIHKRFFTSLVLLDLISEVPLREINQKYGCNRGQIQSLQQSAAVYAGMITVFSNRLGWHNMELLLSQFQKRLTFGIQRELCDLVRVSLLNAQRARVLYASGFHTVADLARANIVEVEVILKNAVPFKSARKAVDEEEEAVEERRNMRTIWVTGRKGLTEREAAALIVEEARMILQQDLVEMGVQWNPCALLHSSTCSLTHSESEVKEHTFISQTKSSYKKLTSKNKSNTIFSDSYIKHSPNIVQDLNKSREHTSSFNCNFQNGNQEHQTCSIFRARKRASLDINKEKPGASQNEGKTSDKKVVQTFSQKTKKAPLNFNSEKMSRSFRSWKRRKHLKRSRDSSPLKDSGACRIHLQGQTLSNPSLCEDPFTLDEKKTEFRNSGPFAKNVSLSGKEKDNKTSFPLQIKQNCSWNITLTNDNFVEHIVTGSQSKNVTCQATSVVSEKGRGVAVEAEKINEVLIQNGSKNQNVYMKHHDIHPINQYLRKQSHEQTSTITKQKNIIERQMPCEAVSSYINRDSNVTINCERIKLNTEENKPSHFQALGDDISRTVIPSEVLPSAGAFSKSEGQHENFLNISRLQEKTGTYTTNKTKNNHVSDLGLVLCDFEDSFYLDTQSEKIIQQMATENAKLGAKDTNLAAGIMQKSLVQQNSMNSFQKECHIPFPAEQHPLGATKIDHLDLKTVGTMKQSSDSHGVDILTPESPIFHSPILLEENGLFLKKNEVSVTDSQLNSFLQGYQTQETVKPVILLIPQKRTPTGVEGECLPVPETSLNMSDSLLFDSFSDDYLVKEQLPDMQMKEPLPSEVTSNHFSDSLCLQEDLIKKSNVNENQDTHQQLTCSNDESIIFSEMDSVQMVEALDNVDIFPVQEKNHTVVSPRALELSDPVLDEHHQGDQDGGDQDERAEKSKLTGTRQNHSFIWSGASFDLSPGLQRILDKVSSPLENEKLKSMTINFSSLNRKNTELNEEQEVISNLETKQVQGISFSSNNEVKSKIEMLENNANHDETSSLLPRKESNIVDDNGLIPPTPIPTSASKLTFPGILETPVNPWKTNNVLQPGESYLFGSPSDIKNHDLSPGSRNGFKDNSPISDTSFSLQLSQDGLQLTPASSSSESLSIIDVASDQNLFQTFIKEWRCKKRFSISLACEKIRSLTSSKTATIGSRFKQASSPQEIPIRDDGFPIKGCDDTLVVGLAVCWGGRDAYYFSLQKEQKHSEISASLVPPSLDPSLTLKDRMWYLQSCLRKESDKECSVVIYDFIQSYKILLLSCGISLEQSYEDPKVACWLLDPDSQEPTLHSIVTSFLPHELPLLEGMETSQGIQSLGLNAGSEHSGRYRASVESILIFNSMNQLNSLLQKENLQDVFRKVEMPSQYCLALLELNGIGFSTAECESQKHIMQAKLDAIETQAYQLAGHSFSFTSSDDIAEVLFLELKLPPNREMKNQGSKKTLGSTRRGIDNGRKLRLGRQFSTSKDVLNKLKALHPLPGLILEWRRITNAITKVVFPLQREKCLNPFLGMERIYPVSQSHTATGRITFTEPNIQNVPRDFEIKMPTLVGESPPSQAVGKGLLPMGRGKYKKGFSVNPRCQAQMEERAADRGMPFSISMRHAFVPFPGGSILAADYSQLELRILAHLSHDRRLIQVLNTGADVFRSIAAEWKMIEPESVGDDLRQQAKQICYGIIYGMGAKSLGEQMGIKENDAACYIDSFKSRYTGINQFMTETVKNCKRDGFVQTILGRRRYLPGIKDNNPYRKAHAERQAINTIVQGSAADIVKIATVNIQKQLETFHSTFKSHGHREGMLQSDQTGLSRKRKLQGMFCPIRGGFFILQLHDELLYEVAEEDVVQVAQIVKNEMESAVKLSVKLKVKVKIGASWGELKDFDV
SMILES,remaining activity
COC(=O)[C@]12CCC(C)(C)C[C@H]1[C@H]1C(=O)C=C3[C@@]4(C)C=C(C#N)C(=O)C(C)(C)[C@@H]4CC[C@@]3(C)[C@]1(C)CC2,41.9%
COc1cc(NC(=O)CSc2ncc(S(=O)(=O)c3ccc(Br)cc3)c(=O)[nH]2)cc(OC)c1,79.5%
Cc1ccc(C(=O)Nc2ccc(S(=O)(=O)[O-])c3cc(S(=O)(=O)[O-])cc(S(=O)(=O)[O-])c23)cc1NC(=O)c1cccc(NC(=O)Nc2cccc(C(=O)Nc3cc(C(=O)Nc4ccc(S(=O)(=O)[O-])c5cc(S(=O)(=O)[O-])cc(S(=O)(=O)[O-])c45)ccc3C)c2)c1.[Na+].[Na+].[Na+].[Na+].[Na+].[Na+],2.64%
COc1cccc(C2C3=C(NN/C3=C3/C=CC=CC3=O)C(=O)N2CCc2ccc(OC)c(OC)c2)c1 (stereo not drawn),58.9%
CSc1ccc(/C=C/c2nc3ccccc3n2S(=O)(=O)c2cccc(Cl)c2)cc1,47.9%
CC(=O)[C@]1(O)Cc2c(O)c3c(c(O)c2[C@@H](O[C@H]2C[C@H](N)[C@H](O)[C@H](C)O2)C1)C(=O)c1ccccc1C3=O,57.5% and 59.5%
O=C(Nc1ccccc1F)c1ccc2c(Cl)c3c(nc2c1)CCC3,80%
COc1ccc2c(c1)c(CC(=O)O)c(C)n2Cc1ccc(Cl)cc1,69.2%
N#CSc1cc(SC#N)c(N)nc1N,25.6%
CCCCCCCC/C=C\CCCCCCCC(=O)O,100%
CCOc1nc2cccc(C(=O)OCc3oc(=O)oc3C)c2n1Cc1ccc(-c2ccccc2-c2noc(=O)[nH]2)cc1,42.2%

# Sample 4 — organism: Sarcocystis neurona; effect on: parasite growth; tested at: 10 µM; baseline: untreated
SMILES,log2 fold change
Cc1onc(-c2ccccc2)c1C(=O)N[C@@H]1C(=O)N2[C@@H]1SC(C)(C)[C@@H]2C(=O)O,0.3
CN1CCN(c2c(F)cc3c(=O)c(C(=O)O)cn4c3c2SCC4)CC1.Cl,0.3
CC1(C)S[C@@H]2[C@H](NC(=O)Cc3ccccc3)C(=O)N2[C@H]1C(=O)[O-].[K+],0.38
CC(COc1ccccc1Cc1ccccc1)N1CCCCC1.O=P(O)(O)O (stereo not drawn),-0.13
Br.O=C1CC2(CCCC2)CC(=O)N1CCNCC1COc2ccccc2O1 (stereo not drawn),-0.48
C[C@H]1C[C@H]2[C@@H]3CCC4=CC(=O)C=C[C@]4(C)[C@@]3(Cl)[C@@H](O)C[C@]2(C)[C@@]1(O)C(=O)CO,-0.05
CC(C)(C)NCC(O)c1ccc(O)c(CO)c1.CC(C)(C)NCC(O)c1ccc(O)c(CO)c1.O=S(=O)(O)O (stereo not drawn),0.26
Cl.NC[C@H](O)c1ccc(O)c(O)c1,0.38
O=C(O[C@@H]1Cc2c(O)cc(O)cc2O[C@@H]1c1cc(O)c(O)c(O)c1)c1cc(O)c(O)c(O)c1,0.31
CC(C)NCC(O)COc1cccc2ccccc12.Cl (stereo not drawn),0.3
CCCCC(=O)O[C@H]1CC[C@H]2[C@@H]3CCc4cc(O)ccc4[C@H]3CC[C@]12C,0.33
CN[C@@H]1[C@H](O)[C@H](NC)[C@H]2O[C@@]3(O)C(=O)C[C@@H](C)O[C@H]3O[C@@H]2[C@H]1O.Cl.Cl,0.29

# Excerpt of the above (sample 1):
cell line,test system,setting,viability
sample D normal colon organoid,,mean of replicates,116%
normal organoid sample F,"human, normal-adjacent epithelium",,85.4% and 84.5%
normal adjacent epithelium patient-derived organoids,,mean of five organoid lines,97%
normal organoid sample D,"human, normal-adjacent epithelium",,117% and 115%
